Assay results collected from several papers.
Every numbered part comes from another study and shows a few of its results, in no order.
UniProt Q9H4B4, sequence (whole entry, looked up): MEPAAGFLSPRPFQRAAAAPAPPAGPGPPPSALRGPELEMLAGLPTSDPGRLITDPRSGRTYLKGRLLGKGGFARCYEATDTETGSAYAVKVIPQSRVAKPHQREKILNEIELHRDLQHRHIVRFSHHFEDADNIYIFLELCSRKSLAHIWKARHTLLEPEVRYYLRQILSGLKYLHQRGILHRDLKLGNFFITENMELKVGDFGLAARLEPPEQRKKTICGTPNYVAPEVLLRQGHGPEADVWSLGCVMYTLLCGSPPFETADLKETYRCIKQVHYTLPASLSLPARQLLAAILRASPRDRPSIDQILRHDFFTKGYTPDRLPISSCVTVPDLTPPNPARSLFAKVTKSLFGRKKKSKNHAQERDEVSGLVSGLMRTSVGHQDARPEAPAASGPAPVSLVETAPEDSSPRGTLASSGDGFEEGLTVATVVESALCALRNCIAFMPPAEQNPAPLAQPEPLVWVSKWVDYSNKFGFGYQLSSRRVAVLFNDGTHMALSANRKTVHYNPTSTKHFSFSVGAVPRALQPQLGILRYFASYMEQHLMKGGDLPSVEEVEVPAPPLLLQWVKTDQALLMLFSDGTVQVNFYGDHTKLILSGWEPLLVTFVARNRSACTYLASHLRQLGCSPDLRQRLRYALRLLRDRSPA

Sample 1
Target: Histone acetyltransferase KAT6A, winged helix 2, GST fusion (KAT6A, Homo sapiens, UniProt Q92794, residues 85-181)
Method: protein binding microarray
Molecule type: double-stranded DNA, one strand shown
Sample: in vitro
Tested at: not given
Setting: 8-mer, flanks averaged, mean of 2 arrays, mostly near background
Reference: not given
Direction: higher = stronger binding
Target sequence (chain): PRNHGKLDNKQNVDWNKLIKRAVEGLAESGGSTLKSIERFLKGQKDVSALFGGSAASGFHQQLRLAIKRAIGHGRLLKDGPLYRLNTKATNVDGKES
The E-score of `GTTGCTAA` is reported as 0.128.
The E-score of `GAGTTCGA` is reported as 0.0636.
`AGGCAACT` gave an E-score of 0.179.
The E-score of `ACAGCAGG` is reported as 0.0797.
`TCCAATAA` has an E-score of 0.046.
`AACTCTGG` gave an E-score of 0.0273.
The E-score of `AGACTAAT` is reported as 0.043.
With `GGACAGCC` the E-score was 0.154.

Sample 2
Target: Interferon regulatory factor 3, full length, phosphomimetic (IRF3, Homo sapiens, UniProt Q14653, residues 1-427, S386D/S396D/S398D/S402D/T404D/S405D)
Method: protein-binding microarray
Molecule type: double-stranded DNA, one strand shown
Sample: in vitro
Tested at: 2540 nM top
Setting: 60-bp whole probe
Together with: salmon DNA 0.4 mg/ml
Reference: random background probes
Direction: higher = stronger binding
All sequences stand within: GCCTAGCAC … GTCTTGATTCGCTTGACGCTGCTG
Construct (chain): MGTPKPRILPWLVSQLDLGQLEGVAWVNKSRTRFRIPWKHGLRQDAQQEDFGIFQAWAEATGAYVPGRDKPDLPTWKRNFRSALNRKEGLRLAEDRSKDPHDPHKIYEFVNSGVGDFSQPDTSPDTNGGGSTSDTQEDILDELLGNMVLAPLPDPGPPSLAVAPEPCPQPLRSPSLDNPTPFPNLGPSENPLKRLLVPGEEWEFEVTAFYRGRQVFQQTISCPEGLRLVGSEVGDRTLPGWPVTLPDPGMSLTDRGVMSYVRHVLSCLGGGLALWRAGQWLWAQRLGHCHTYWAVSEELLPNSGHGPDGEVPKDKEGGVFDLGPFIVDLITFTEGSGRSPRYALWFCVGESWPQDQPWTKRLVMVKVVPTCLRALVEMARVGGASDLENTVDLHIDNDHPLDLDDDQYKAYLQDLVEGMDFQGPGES
Under “fitted relative affinity”, `GAAGGACTGCTTTTCCTGACGTGCTAG` is recorded as -0.151 z-score.
`TTAGATATCAGATTGGATTAGTGCTAG`: “fitted relative affinity” 0.819 z-score.
Under “fitted relative affinity”, `TCATAACTCATTCTCCAACTGTGCTAG` is recorded as 1.61 z-score.
For `TTAGGTTTCGGAATGGGTTAGTGCTAG`, “fitted relative affinity” read 6.79 z-score.
Under “fitted relative affinity”, `GACGGACTGCCTCTCCTGACGTGCTAG` is recorded as -0.544 z-score.
`TCAGAATTACCTCTGGAACTGTGCTAG`: “fitted relative affinity” -0.0217 z-score.
Under “fitted relative affinity”, `TCACGGATGATCTCTCTGACTGTGCTA` is recorded as -0.655 z-score.
`TTAGATTTCGGTTTCGATTAGTGCTAG` — result for “fitted relative affinity”: 8.33 z-score.

Other studies, line by line
With CCOc1cc2ncnc(Nc3cccc(Br)c3)c2cc1OCC the remaining activity was 97.1% (PLK3 (Homo sapiens, UniProt Q9H4B4); enzyme activity, inhibitor; 0.5 µM; reference: control).
`PhoQ, residues 284 288 289 292 302 303 AEGLLW` has a fold induction of 1.53 (PhoP, residues 12 14 15 18 19 NQFFI (Escherichia coli, UniProt P23836); Sort-seq, measured: YFP reporter; E. coli; PhoQ-PhoP variant library, together with: 10 µM Mg2+; reference: high Mg2+ state, higher = stronger signaling).

For quick reference, copied from above (sample 1):
`AACTCTGG` gave an E-score of 0.0273.
The E-score of `AGACTAAT` is reported as 0.043.
